Experimental data from different studies.
Lines come from different studies, so protocols differ. Several values in a cell are separate wells, animals, samples, runs or records.
Target: Mitotic checkpoint serine/threonine-protein kinase BUB1 (BUB1, Homo sapiens, UniProt O43683)

C=CC(=O)N1CCCC(n2c(=O)c3ncccc3n(Cc3ccc(Oc4ccccc4)cc3)c2=O)C1 (stereo not shown)
remaining binding (cell-free assay, competition with immobilised ligand; 1 µM): 66%

CC(C)=CC1OC(C)(C)C2C=C3C(=O)C(Cl)=CC(O)C3C3C(O)C4OC4C(=O)C132 (stereo not shown)
remaining binding (cell-free assay, competition with immobilised ligand; 10 µM): 64%

N[C@H]1CC[C@H](Nc2nccc(-c3cccnc3Oc3ccc(NC(=O)NC4CC4)c4ccccc34)n2)CC1
log2 LFQ intensity (kinobead competition pulldown; HEK293/HCT116 lysate mixture; 10 µM, 1 h, 4 °C; lower = stronger competition): 20.3 and 17.3 and 19.1 and 19.3

Nc1ncc2c(n1)-c1c([nH]c3ccc(C4=CCOCC4)cc13)CCC2
remaining binding (binding, competition with immobilised ligand; 1 µM): 71%

C=CC(=O)N1CCc2ccc(-n3c(=O)ccc4cnc5ccc(-c6cnn(C)c6)cc5c43)cc21
remaining binding (KINOMEscan; 1 µM; relative to: DMSO control): 100%

COc1cc(Nc2nccc(-c3cnn4nc(OC)ccc34)n2)cc(C(F)(F)F)c1
remaining binding (binding, competition with immobilised ligand; 1 µM): 90%

Cc1cnc2nc1Nc1cccc(c1)COC/C=C/COCc1cc(ccc1OCCN1CCOCC1)N2
remaining binding (binding; 0.1 µM): 99%

COc1c(Cl)cccc1Nc1c(-c2ccncc2C#C[C@@]2(C)CCCN2C(=O)/C=C/CN(C)C)[nH]c2c1C(=O)NCC2
remaining binding (binding, competition with immobilised ligand; 3 µM): 3.3%

CCn1cc(C(=O)O)c(=O)c2c(N)c(F)c(NC3CCCCC3)cc21
inhibition (kinase activity; 0.1 µM, with: ATP at Km): -10.3%

CCN1CCN(Cc2ccc(C(=O)Nc3ccc(C)c(NCc4cnc5[nH]ccc5c4OC)c3)cc2C(F)(F)F)CC1
remaining binding (binding, competition with immobilised ligand; 1 µM): 100%

CNC(=O)C1CCN(c2cc(C)c(F)cc2NC(=O)c2ccc(-c3cc(O)ccc3C)c(C)c2)CC1
remaining binding (binding, competition with immobilised ligand; 1 µM): 90%

COc1cc(Nc2nc(C)cc(-c3cnn4nc(OC)ccc34)n2)cc(C(F)(F)F)c1
remaining activity (inhibitor; 1 µM; relative to: control): 67%

CNC1C[S+]2CC[S+]3CC[S+](C1)[Ru-4]321([N]=C=S)[n]2c3ccc(OC)cc3c3c4c(c5cc(F)c[n+]1c5c32)C(=O)NC4=O (stereo not shown)
remaining binding (KinomeScan; 0.1 µM; relative to: untreated): 88%
